Values quoted from earlier work, collected from citations in different studies.
Each numbered part shows a few of the values that one paper quotes. ≈ marks a conversion by molar mass, not a printed value.
UniProt P11229, sequence (whole entry, looked up): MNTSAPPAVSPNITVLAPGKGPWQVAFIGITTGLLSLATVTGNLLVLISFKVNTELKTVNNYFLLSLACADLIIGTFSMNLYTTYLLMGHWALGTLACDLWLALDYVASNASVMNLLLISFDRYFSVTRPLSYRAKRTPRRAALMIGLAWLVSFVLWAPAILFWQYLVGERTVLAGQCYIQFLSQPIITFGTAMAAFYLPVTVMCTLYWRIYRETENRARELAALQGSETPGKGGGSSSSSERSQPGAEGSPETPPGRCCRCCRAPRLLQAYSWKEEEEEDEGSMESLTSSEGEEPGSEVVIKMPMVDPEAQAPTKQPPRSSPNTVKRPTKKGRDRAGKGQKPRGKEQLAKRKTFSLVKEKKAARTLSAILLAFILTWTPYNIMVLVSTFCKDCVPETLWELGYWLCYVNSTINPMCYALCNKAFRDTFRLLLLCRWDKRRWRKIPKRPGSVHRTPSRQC
UniProt P0DMS8, sequence (whole entry, looked up): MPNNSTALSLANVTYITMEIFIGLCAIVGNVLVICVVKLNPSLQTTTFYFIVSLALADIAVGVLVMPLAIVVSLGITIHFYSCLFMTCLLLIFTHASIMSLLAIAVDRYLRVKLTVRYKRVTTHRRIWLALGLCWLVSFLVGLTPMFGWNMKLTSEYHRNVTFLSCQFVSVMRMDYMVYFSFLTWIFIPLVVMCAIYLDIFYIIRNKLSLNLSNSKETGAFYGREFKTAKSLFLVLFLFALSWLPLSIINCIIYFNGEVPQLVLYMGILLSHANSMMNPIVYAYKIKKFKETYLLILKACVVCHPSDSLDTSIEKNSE

Set 1
Target: HLA class I histocompatibility antigen, A alpha chain, allele A*80:01 (Homo sapiens, UniProt P04439)
Effect on: peptide-MHC binding
Molecule type: peptide
Endpoint: IC50
Sequence = AARHKHQVM; value = > 20 µM
Sequence = KVIEKMEVL; value = > 20 µM
Sequence = SQYDPKELL; value = > 20 µM
Sequence = WQDGGWQSV; value = > 20 µM
Sequence = RVERIKSEY; value = 0.0339 µM
Sequence = FLAFFSNGV; value = > 20 µM
Sequence = DSPATLSAY; value = > 20 µM
Sequence = FPIPTEVVA; value = > 20 µM
Sequence = GMHDGTVGK; value = > 20 µM
Sequence = LPLKMLNIPSINVH; value = > 20 µM
Sequence = KLHCTERSL; value = > 20 µM
Sequence = VHYGQGWLY; value = 0.001 µM
Sequence = FQAGWEDPT; value = > 20 µM
Sequence = FHIVNQESL; value = > 20 µM

Single results of other studies
SMILES = CNC(=O)[C@H]1O[C@@H](n2cnc3c(NCc4cccc(I)c4)ncnc32)[C@H](O)[C@@H]1O; tested on = ADORA3 (Homo sapiens, UniProt P0DMS8); endpoint = Hill coefficient; value = 0.8
SMILES = CC(C)C[C@H](NC(=O)[C@H](Cc1ccccc1)NC(=O)c1cnccn1)B(O)O; tested on = ELANE; test = enzyme activity, inhibitor; conditions = 10 µM; endpoint = inhibition; value = 40%
SMILES = CN(C(=O)n1cnc(-c2ccc[n+]([O-])c2)c1)C1CCCCC1; test system = dogs; conditions = 13 weeks repeated daily dosing; endpoint = NOAEL; value = 20 mg/kg/day
SMILES = CCN(CC)CCOc1ccc2c(c1)C(=O)c1cc(OCCN(CC)CC)ccc1-2; test system = guinea pig liver microsomes; endpoint = intrinsic clearance; value = 114 µL/min/mg protein
SMILES = COc1ccc(C[C@H]2NC[C@H](O)[C@H]2OC(C)=O)cc1; tested on = Trypanosoma brucei; test = parasite growth; endpoint = IC50; value = 0.1 µM
SMILES = CCN(CC)CCCC(C)Nc1c2ccc(Cl)cc2nc2ccc(OC)cc12 (stereo not shown); test system = human liver microsomes; endpoint = intrinsic clearance; value = 50.5 µL/min/mg protein
SMILES = CCN(CC)N=O; test = fingerprint mutation, item: T>G substitution; test system = rat, liver; conditions = concentration not given; endpoint = mutation frequency; value = increased
SMILES = CN(C)c1cc(NC(=O)CNC(C)(C)C)c(O)c2c1C[C@H]1C[C@H]3[C@H](N(C)C)C(O)=C(C(N)=O)C(=O)[C@@]3(O)C(O)=C1C2=O; tested on = Escherichia coli; test system = AR0346 colistin resistant; endpoint = MIC; value = < 0.5 µg/mL
SMILES = N#C[C@@]1(c2ccc3c(N)ncnn23)O[C@H](CO)[C@@H](O)[C@H]1O; test system = mouse; conditions = intravenous, 20 mg/kg remdesivir; endpoint = lung concentration; value = 14200 nmol/kg
SMILES = C[N+]1(C)CCC(OC(=O)C(c2ccccc2)c2ccccc2)CC1; tested on = CHRM1 (Homo sapiens, UniProt P11229); test = inhibitor; conditions = historical measurement; endpoint = IC50; value = 0.0045 µM
SMILES = O=C(O)C(F)(F)C(F)(F)C(F)(F)C(F)(F)C(F)(F)C(F)(F)F; test system = human, young female; endpoint = renal clearance; value = 0.17 mL/day/kg
SMILES = CCC(CC)COC(=O)[C@H](C)N[P@](=O)(OC[C@H]1O[C@@](C#N)(c2ccc3c(N)ncnn23)[C@H](O)[C@@H]1O)Oc1ccccc1; test system = mouse; conditions = 20 mg/kg, 1 h; endpoint = lung concentration; value = 308 nmol/kg
SMILES = CNC(C)C1CCC(N)C(OC2C(N)CC(N)C(OC3OCC(C)(O)C(NC)C3O)C2O)O1 (stereo not shown); tested on = Escherichia coli; test = bacterial growth; test system = colistin-resistant; endpoint = MIC; value = 0.5 µg/mL (≈ 1.05 µM)
SMILES = N=C(N)c1ccc(CNC(=O)[C@@H]2CCN2C(=O)[C@H](NCC(=O)O)C2CCCCC2)cc1; tested on = plasmin; test = enzyme activity, inhibitor; endpoint = IC50, Ki or Kd; value = 1.4 µM
